Measurements pooled from the literature.
± gives the spread as reported.
rep main protease: Replicase polyprotein 1ab, main protease (rep, Severe acute respiratory syndrome coronavirus 2, UniProt P0DTD1)
rep nsp14 N7-methyltransferase: Replicase polyprotein 1ab, nsp14 N7-methyltransferase (rep, Severe acute respiratory syndrome coronavirus 2, UniProt P0DTD1)

| Compound | target or system | assay | system | setting | scale | endpoint | value |
| --- | --- | --- | --- | --- | --- | --- | --- |
| Oc1ccc(C2=Cc3ccc(O)cc3OC2)cc1 | rep main protease | reporter gene (Gaussia luciferase), inhibitor |  | 20 µM |  | inhibition | -3.13% |
| O=C(NC[C@H]1CC2(CCC2)CN1C(=O)Cc1ccccc1O)c1ccc2c(c1)CCNC2=O | rep main protease | enzyme activity, inhibitor |  | 5 µM, run 2 |  | inhibition | 15% |
| Cc1cc(C2CCCCC2)n(OCOP(=O)(O)O)c(=O)c1 | rep main protease | viral replication, mKate2 reporter | SARS-CoV-2 | 20 µM |  | inhibition | 0.543% |
| COCCC(=O)N1CCC(Oc2ccccc2)C1 (stereo not shown) | Replicase polyprotein 1ab, nsp13 helicase (rep, Severe acute respiratory syndrome coronavirus 2, UniProt P0DTD1) | binding, affinity selection mass spectrometry |  |  | baseline: other proteins in batch | log fold enrichment | -0.0989 |
| CN(C(=O)[C@H](Cc1ccccc1)NC(=O)[C@@H](NC(=O)OCc1ccccc1)C(C)(C)C)N(C#N)CCC(N)=O | rep main protease | inhibitor, biochemical |  |  |  | kinact/Ki | 36000 M⁻¹ s⁻¹ |
| CC[C@H](C)[C@H](NC(=O)[C@H](CC(C)C)NC(=O)[C@H](Cc1c[nH]c2ccccc12)NC(=O)[C@H](CCC(N)=O)NC(=O)[C@@H](NC(=O)[C@H](Cc1ccccc1)NC(=O)[C@H](C)NC(=O)[C@H](CCCCNC(=O)COCCOCCNC(=O)COCCOCCNC(=O)CC[C@H](NC(=O)CCCCCCCCCCCCCCCCCCC(=O)O)C(=O)O)NC(=O)[C@H](CCC(N)=O)NC(=O)[C@H](C)NC(=O)[C@@H](NC(=O)[C@H](CCCCN)NC(=O)[C@H](CC(=O)O)NC(=O)[C@H](CC(C)C)NC(=O)C(C)(C)NC(=O)[C@@H](NC(=O)[C@H](CO)NC(=O)[C@H](Cc1ccc(O)cc1)NC(=O)[C@H](CC(=O)O)NC(=O)[C@H](CO)NC(=O)[C@@H](NC(=O)[C@H](Cc1ccccc1)NC(=O)[C@@H](NC(=O)CNC(=O)[C@H](CCC(=O)O)NC(=O)C(C)(C)NC(=O)[C@@H](N)Cc1ccc(O)cc1)[C@@H](C)O)[C@@H](C)O)[C@@H](C)CC)[C@@H](C)CC)C(C)C)C(=O)N[C@@H](C)C(=O)NCC(=O)NCC(=O)N1CCC[C@H]1C(=O)N[C@@H](CO)C(=O)N[C@@H](CO)C(=O)NCC(=O)N[C@@H](C)C(=O)N1CCC[C@H]1C(=O)N1CCC[C@H]1C(=O)N1CCC[C@H]1C(=O)N[C@@H](CO)C(N)=O |  |  | healthy human | 2.5 mg, single ascending dose |  | injection site reaction | 0% |
| Cc1cncc(CC(=O)N2CCC[C@@H]([C@@H]3CCN(C(=O)c4cnn5cccnc45)C3)C2)c1 | rep main protease | enzyme activity, inhibitor |  | 5 µM, run 2 |  | inhibition | 11.1% |
| C[C@@H]1O[C@@H](Oc2ccc(CN=C=S)cc2)[C@H](O)[C@H](O)[C@H]1O | rep main protease | reporter gene (Gaussia luciferase), inhibitor |  | 20 µM |  | inhibition | 0.0955% |
| Nc1ccn([C@H]2C[C@H](O)[C@@H](COP(=O)(O)OP(=O)(O)OP(=O)(O)O)O2)c(=O)n1 | Replicase polyprotein 1ab, nsp12 RdRp (rep, Severe acute respiratory syndrome coronavirus 2, UniProt P0DTD1) | nucleotide incorporation, substrate |  |  |  | Vmax | 0.98 fraction per time |
| Cc1cncc(CC(=O)N2CCC[C@H]([C@H]3CCN(C(=O)c4cnc5cc(C)ccc5c4)C3)C2)c1 | rep main protease | enzyme activity, inhibitor |  | 5 µM, run 1 |  | inhibition | 11.4% |
| N#C[C@@]1(n2ccc(N)nc2=O)O[C@H](COP(=O)(O)OP(=O)(O)OP(=O)(O)O)[C@@H](O)[C@H]1O | Replicase polyprotein 1ab, nsp12 with nsp7/nsp8 (rep, Severe acute respiratory syndrome coronavirus 2, UniProt P0DTD1) | 40-nt product after incorporation |  | 25 µM, together with: NTPs 100 µM |  | full extension time | ≤ 1 s |
| O=c1oc2cc(O)cc(O)c2c2oc3cc(O)c(O)cc3c12 | rep main protease | reporter gene (Gaussia luciferase), inhibitor |  | 20 µM |  | inhibition | -0.38% |
| O=C(N[C@@H]1Cc2ccccc2[C@H]1NC(=O)c1cc(O)ccc1[N+](=O)[O-])c1ccc2[nH]nnc2n1 | rep main protease | enzyme activity, inhibitor |  | 5 µM, mean of runs |  | inhibition | 10.3% |
| CCN(Cc1cn(C[C@H]2O[C@@H](n3cnc4c(N)ncnc43)[C@H](O)[C@@H]2O)nn1)S(=O)(=O)c1ccc(OC)cc1 | rep nsp14 N7-methyltransferase | N7-methyltransferase activity, inhibitor, radioactive filter binding |  | 50 µM, 0.5 h, 30 °C, together with: GpppAC4 RNA, SAM |  | remaining binding | > 50% |
| CCO.C[C@H]1c2cccc(O)c2C(O)=C2C(=O)[C@]3(O)C(O)=C(C(N)=O)C(=O)[C@@H](N(C)C)[C@@H]3[C@@H](O)[C@@H]21.C[C@H]1c2cccc(O)c2C(O)=C2C(=O)[C@]3(O)C(O)=C(C(N)=O)C(=O)[C@@H](N(C)C)[C@@H]3[C@@H](O)[C@@H]21.Cl.Cl.O | rep main protease | reporter gene (Gaussia luciferase), inhibitor |  | 20 µM |  | inhibition | 3.36% |
| CC1(C)CC(=O)c2c(oc3c(Cl)cc(NS(=O)(=O)c4ccc5ccccc5c4)cc23)C1 | rep nsp14 N7-methyltransferase | N7-methyltransferase activity, inhibitor, Py-FLINT |  |  |  | Hill slope | 1.34 ± 0.1 |
| Nc1ncnc2c([C@@H]3N[C@H](CO)[C@@H](O)[C@H]3O)c[nH]c12 | Zaire ebolavirus | antibody staining | HeLa, Kikwit | 400 µM |  | antigen-positive cells | 0.12% |
| O=C(N[C@@H](CNC(=O)[C@H]1CCCc2[nH]cnc21)c1ccc2ccccc2c1)c1cccnn1 | rep main protease | enzyme activity, inhibitor |  | 5 µM, run 1 |  | inhibition | 17.2% |
| COc1cc(NS(=O)(=O)c2ccc(NC(=O)c3ccc4ccccc4c3)cc2)nc(OC)n1 | rep nsp14 N7-methyltransferase | N7-methyltransferase activity, inhibitor, Py-FLINT |  |  |  | Hill slope | 1.02 ± 0.14 |

For quick reference, copied from above:
| Compound | target or system | assay | system | setting | scale | endpoint | value |
| --- | --- | --- | --- | --- | --- | --- | --- |
| N#C[C@@]1(n2ccc(N)nc2=O)O[C@H](COP(=O)(O)OP(=O)(O)OP(=O)(O)O)[C@@H](O)[C@H]1O | Replicase polyprotein 1ab, nsp12 with nsp7/nsp8 (rep, Severe acute respiratory syndrome coronavirus 2, UniProt P0DTD1) | 40-nt product after incorporation |  | 25 µM, together with: NTPs 100 µM |  | full extension time | ≤ 1 s |
| O=C(NC[C@H]1CC2(CCC2)CN1C(=O)Cc1ccccc1O)c1ccc2c(c1)CCNC2=O | rep main protease | enzyme activity, inhibitor |  | 5 µM, run 2 |  | inhibition | 15% |
